Results of several laboratories.
Each line is one published result; not all experiments were run side by side. Values joined by “and” are separate records of one study, mostly repeats; a detail may differ. ± marks the error that the study gave.

Cc1ccc(OCC(=O)N(Cc2cccs2)c2ccn[nH]2)cc1 — plasma concentration (mouse, CD-1, male, plasma; oral, 30 mg/kg, 2 h): 27 nM
O=C1C2CC3CC1CC(C(=O)N1CCN(c4ccc([N+](=O)[O-])c5ncccc45)CC1)(C3)C2 — plasma concentration (ICR mouse, male; oral, 5 mg/kg, 2 h): 7.61 ng/mL
C=CC(=O)N1CCC[C@@H](c2ccc(C(N)=O)c3[nH]ccc23)C1 — plasma concentration (mouse, TMD8 tumour-bearing, plasma; 15 mg/kg twice daily, 8 h): 12.6 ng/mL
C=CC(=O)N1CCCC(n2c(=O)c3ncccc3n(Cc3ccc(Oc4ccccc4)cc3)c2=O)C1 (stereo not drawn) — plasma concentration (male BALB/c mouse, plasma; intraperitoneal, 200 mg/kg, 0.25 h): 67900 ng/mL
Cc1nn(-c2nc3c(F)cc(F)cc3s2)c(O)c1C(c1ccc(C(F)(F)F)cc1)c1c(C)nn(-c2nc3c(F)cc(F)cc3s2)c1O — plasma concentration (ICR mouse; oral, 50 mg/kg, 24.0 h): 509 ng/mL and 2880 ng/mL and 226 ng/mL
CC(C)n1ncc2c(C(=O)NC[C@@H](C)N)cc(C3CC3)nc21 — plasma concentration (mouse BALB/c female, plasma; intraperitoneal, 30 mg/kg, 8 h): 204 ng/mL and 210 ng/mL and 169 ng/mL and 192 ng/mL
CC1(C)CC[C@@]2(CO)C(=C3C=C[C@@H]4[C@@]5(C)CC[C@H](O)[C@@](C)(CO)[C@@H]5CC[C@@]4(C)[C@]3(C)C[C@@H]2O)C1 — plasma concentration (UHPLC-MS/MS; mouse, plasma; oral, 50 mg/kg of saikosaponin a, 0.5 h): 0 ng/mL
[2H]C([2H])(N)C([2H])([2H])NC(=O)c1cc(C2CC2)nc2c1cnn2C(C)C — plasma concentration (mouse BALB/c female, plasma; intraperitoneal, 50 mg/kg, 1 h): 2460 ng/mL and 2630 ng/mL and 2610 ng/mL and 2690 ng/mL
O=C1CCC(N2Cc3cc(C(=O)O)c(F)cc3C2=O)C(=O)N1 (stereo not drawn) — plasma concentration (CD-1 mouse, male; oral, 10 mg/kg parent drug, 0.33 h): 174 ± 86.2 ng/mL

For quick reference, copied from above:
O=C1C2CC3CC1CC(C(=O)N1CCN(c4ccc([N+](=O)[O-])c5ncccc45)CC1)(C3)C2 — plasma concentration (ICR mouse, male; oral, 5 mg/kg, 2 h): 7.61 ng/mL
